# Measured values pooled from the literature.
# ± marks the error that the study gave.
# Astl: Astacin-like metalloendopeptidase (Astl, Mus musculus, UniProt Q6HA09)
# UniProt Q6HA09, sequence (whole entry, looked up): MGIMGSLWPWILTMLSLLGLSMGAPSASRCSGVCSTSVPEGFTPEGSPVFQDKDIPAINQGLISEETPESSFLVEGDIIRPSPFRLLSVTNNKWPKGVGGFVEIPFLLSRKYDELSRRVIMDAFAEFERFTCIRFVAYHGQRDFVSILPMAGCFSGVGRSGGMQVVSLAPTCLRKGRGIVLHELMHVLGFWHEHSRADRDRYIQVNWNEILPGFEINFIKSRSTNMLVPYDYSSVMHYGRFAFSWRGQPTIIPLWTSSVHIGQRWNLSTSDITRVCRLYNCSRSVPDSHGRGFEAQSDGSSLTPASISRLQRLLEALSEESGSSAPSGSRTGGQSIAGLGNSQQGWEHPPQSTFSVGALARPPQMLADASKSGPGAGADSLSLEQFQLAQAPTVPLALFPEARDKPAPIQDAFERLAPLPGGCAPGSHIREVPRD
# rhlR: HTH-type quorum-sensing regulator RhlR (rhlR, Pseudomonas aeruginosa, UniProt P54292)
# UniProt P54292, sequence (whole entry, looked up): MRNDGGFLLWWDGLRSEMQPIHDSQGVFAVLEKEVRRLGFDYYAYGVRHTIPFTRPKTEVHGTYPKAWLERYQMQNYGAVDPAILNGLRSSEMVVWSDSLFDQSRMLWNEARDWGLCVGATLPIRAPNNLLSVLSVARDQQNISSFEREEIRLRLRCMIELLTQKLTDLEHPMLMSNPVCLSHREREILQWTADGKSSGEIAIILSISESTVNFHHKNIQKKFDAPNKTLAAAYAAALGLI
# BRAF: Serine/threonine-protein kinase B-raf (BRAF, Homo sapiens, UniProt P15056)
# UniProt P15056, sequence (whole entry, looked up): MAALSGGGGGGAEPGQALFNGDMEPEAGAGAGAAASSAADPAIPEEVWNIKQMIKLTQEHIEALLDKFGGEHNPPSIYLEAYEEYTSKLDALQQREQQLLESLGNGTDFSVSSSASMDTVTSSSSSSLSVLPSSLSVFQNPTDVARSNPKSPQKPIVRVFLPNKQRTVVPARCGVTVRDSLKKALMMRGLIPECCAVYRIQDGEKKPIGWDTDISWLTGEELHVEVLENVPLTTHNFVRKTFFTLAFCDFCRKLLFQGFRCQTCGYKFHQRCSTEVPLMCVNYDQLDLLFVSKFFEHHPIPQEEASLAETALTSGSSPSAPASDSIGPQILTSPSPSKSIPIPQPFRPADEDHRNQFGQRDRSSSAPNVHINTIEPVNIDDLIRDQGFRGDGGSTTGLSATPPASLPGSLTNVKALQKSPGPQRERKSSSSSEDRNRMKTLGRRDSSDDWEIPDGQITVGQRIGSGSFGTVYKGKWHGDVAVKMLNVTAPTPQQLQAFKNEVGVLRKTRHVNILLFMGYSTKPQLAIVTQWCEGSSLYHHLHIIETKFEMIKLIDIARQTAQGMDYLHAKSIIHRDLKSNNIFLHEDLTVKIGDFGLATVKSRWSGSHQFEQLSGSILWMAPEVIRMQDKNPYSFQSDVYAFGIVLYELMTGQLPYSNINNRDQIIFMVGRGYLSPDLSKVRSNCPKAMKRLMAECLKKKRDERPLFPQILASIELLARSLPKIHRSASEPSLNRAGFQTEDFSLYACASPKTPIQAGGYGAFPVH
# CDK16 with cyclin Y: Cyclin-dependent kinase 16, with cyclin Y (CDK16, Homo sapiens, UniProt Q00536)
# UniProt Q00536, sequence (whole entry, looked up): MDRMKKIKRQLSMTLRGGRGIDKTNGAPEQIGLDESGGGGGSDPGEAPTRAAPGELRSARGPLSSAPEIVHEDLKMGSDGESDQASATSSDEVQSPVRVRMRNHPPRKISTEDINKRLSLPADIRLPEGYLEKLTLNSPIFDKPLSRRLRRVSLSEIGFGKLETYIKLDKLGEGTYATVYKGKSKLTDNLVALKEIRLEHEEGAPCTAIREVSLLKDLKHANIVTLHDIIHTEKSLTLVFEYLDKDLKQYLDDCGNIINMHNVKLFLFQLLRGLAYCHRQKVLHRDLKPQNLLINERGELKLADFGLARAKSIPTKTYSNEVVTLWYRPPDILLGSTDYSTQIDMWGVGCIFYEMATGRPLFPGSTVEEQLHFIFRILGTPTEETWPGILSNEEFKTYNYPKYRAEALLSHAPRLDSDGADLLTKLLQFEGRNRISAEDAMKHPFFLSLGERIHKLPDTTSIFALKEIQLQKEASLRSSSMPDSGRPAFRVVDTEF
# MAP3K5: Mitogen-activated protein kinase kinase kinase 5 (MAP3K5, Homo sapiens, UniProt Q99683)
# UniProt Q99683, sequence (whole entry, looked up): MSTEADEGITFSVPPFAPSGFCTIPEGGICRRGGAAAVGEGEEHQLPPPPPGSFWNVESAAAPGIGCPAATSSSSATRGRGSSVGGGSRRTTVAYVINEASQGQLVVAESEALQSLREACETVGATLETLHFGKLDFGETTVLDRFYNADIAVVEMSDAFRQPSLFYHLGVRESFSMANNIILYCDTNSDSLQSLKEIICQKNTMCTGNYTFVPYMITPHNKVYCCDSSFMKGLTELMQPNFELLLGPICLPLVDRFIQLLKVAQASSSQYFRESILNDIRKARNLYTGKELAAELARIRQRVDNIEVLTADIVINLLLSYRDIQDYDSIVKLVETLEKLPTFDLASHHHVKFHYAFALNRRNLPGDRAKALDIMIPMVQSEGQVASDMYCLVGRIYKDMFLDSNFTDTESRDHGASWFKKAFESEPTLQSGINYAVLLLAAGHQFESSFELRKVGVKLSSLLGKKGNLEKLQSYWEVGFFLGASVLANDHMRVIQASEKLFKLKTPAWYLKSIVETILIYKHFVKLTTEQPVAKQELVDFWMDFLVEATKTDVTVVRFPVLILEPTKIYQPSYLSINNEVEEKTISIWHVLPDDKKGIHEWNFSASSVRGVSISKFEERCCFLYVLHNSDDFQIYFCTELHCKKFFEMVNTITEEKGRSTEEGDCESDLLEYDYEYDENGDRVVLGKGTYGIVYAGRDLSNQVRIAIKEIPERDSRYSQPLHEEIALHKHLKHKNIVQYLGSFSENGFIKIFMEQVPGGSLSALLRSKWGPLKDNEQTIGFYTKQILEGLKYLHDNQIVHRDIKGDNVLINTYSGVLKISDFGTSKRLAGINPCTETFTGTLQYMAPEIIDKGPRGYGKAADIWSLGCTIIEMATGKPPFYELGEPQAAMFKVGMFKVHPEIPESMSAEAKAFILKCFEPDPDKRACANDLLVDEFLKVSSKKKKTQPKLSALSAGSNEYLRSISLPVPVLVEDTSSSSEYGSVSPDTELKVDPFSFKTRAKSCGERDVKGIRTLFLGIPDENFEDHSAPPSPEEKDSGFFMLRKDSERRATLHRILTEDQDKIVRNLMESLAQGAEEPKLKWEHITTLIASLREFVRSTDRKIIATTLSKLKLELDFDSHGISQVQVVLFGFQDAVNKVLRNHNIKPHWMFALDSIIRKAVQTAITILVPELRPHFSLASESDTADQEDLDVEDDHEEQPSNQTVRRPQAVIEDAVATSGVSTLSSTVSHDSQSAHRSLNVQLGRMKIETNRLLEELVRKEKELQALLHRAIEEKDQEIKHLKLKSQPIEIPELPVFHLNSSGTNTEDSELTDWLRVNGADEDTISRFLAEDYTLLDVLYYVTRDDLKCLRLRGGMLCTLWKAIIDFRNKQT
# UniProt O15075, sequence (whole entry, looked up): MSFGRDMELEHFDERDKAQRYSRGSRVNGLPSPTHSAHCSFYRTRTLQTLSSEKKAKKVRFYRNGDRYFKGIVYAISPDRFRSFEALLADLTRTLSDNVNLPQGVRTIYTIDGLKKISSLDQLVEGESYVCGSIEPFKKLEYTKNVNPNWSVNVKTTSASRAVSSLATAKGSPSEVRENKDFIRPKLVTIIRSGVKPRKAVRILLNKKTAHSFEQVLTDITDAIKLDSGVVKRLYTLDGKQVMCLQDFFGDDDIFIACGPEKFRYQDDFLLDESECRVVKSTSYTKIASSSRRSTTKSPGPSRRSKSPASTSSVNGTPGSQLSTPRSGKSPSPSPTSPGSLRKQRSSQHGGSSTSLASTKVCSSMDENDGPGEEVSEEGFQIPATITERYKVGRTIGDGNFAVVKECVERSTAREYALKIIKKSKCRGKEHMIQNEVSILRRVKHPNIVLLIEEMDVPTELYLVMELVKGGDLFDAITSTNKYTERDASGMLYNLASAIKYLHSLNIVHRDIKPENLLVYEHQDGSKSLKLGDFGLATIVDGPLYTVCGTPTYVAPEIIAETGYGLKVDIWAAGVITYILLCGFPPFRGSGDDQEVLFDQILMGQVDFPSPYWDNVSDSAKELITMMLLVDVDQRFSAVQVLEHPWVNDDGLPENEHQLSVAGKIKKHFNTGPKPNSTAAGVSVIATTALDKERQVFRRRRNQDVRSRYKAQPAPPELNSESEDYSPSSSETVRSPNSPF
# UniProt P61075, sequence (whole entry, looked up): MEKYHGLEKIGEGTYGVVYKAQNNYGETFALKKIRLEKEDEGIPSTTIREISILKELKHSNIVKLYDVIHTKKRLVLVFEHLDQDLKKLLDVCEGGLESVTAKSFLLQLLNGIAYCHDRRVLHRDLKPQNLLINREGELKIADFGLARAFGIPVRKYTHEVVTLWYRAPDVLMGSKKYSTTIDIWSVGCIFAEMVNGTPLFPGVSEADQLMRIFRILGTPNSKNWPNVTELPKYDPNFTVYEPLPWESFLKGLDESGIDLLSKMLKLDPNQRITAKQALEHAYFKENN
# UniProt P45983, sequence (whole entry, looked up): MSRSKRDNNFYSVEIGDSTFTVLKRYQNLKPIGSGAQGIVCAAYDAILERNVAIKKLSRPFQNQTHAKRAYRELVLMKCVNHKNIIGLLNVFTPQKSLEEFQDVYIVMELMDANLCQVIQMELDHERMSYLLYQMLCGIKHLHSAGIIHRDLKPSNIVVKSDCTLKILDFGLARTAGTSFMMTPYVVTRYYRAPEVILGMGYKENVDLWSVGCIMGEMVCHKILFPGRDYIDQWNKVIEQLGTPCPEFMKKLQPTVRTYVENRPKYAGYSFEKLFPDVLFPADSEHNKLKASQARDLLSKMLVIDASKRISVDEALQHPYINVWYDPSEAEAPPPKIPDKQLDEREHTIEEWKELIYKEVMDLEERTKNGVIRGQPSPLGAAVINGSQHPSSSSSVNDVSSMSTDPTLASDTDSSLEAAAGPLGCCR
Structure (SMILES),target,test,setting,scale,remaining activity
O=C(CCN(Cc1ccc2c(c1)OCO2)Cc1ccc(Cl)cc1F)NO,Astl,"enzyme activity, inhibitor, fluorogenic",0.25 µM,,83 ± 2%
COc1cc(C#CC(O)CC(C)C)ccc1O (stereo not drawn),rhlR,"reporter gene, inhibitor, quorum sensing reporter strain","10 µM, 1.5 h",baseline: DMSO,83%
O=C(CCN(Cc1ccc2c(c1)OCO2)Cc1ccc(Cl)c(O)c1F)NO,Astl,"enzyme activity, inhibitor, fluorogenic",5 µM,,14 ± 3%
COc1cc(C#CC(=O)c2ccccc2C)ccc1O,rhlR,"reporter gene, inhibitor, quorum sensing reporter strain","10 µM, 1.5 h",baseline: DMSO,64%
C=CC(=O)N1CCC[C@@H](n2nc(-c3ccc(Oc4ccccc4)cc3)c3c(N)ncnc32)C1,BRAF,"kinase activity, inhibitor, HotSpot radiometric","100 nM, together with: ATP 10 µM",,86.8 ± 0.5%
O=C(C#Cc1ccc(F)c(F)c1)c1ccccc1,rhlR,"reporter gene, inhibitor, quorum sensing reporter strain","10 µM, 1.5 h",baseline: DMSO,59%
C=CC(=O)N1CCC([C@@H]2CCNc3c(C(N)=O)c(-c4ccc(Oc5ccccc5)cc4)nn32)CC1,CDK16 with cyclin Y,"kinase activity, inhibitor, HotSpot radiometric","100 nM, together with: ATP 10 µM",,77.7 ± 0.4%
COc1cc(C#CC(=O)c2cccc(Cl)c2)ccc1O,rhlR,"reporter gene, inhibitor, quorum sensing reporter strain","10 µM, 1.5 h",baseline: DMSO,63%
CCOc1cc(N2CCN(C)CC2)ccc1Nc1nc(N)n(C(=O)NCc2ccccc2S(=O)(=O)C(C)C)n1,"DCLK1 (Homo sapiens, UniProt O15075)",enzyme activity,10 µM,baseline: control,1.6%
CCCCC[C@H](O)CC(=O)CCc1ccc(O)c(OC)c1,rhlR,"reporter gene, inhibitor, quorum sensing reporter strain","10 µM, 1.5 h",baseline: DMSO,84%
NC/C(=C\F)COc1cccc(Cn2c(=S)[nH]c(=O)c3[nH]cnc32)c1,"Peroxidasin homolog (PXDN, Homo sapiens, UniProt Q92626)",Amplex UltraRed,"10 µM, mean of replicates",baseline: control,44.2%
Cc1cc(Nc2cc(N3CCN(C)CC3)nc(Sc3ccc(NC(=O)C4CC4)cc3)n2)[nH]n1,"STK3 (Homo sapiens, UniProt Q13188)","kinase activity, KinaseProfiler","0.03 µM, species human",baseline: control,95%
O=C(NC1CCC1)c1ccc2nc(-c3cccc(NS(=O)(=O)NCCN4CCCCC4)c3)cn2c1,"ABL1 (Homo sapiens, UniProt P00519, E255K)",enzyme activity,10 µM,,100%
O=C(CCN(Cc1ccncc1)Cc1ccc2c(c1)OCO2)NO,Astl,"enzyme activity, inhibitor, fluorogenic",5 µM,,61 ± 7%
COc1cc(F)ccc1-c1ncnc(Nc2cccc(C[S@](C)(=N)=O)c2)n1,"ROS1 (Homo sapiens, UniProt P08922)",kinase activity,"10 µM, together with: 10 µM ATP",,90%
O=C(C#Cc1ccc(F)c(F)c1)c1ccc(Cl)cc1,rhlR,"reporter gene, inhibitor, quorum sensing reporter strain","10 µM, 1.5 h",baseline: DMSO,100%
COc1cc(N2CCN(C)CC2)ccc1Nc1nc(N)n(C(=S)NCc2c(Cl)cccc2Cl)n1,"FGFR4 (Homo sapiens, UniProt P22455)",enzyme activity,10 µM,baseline: control,0%
C[C@H]1[C@H](OC(=O)CCC(=O)O)O[C@@H]2O[C@@]3(C)CC[C@H]4[C@H](C)CC[C@@H]1[C@@]24OO3,"Non-structural polyprotein pORF1, helicase domain (Hepatitis E virus genotype 1, UniProt P33424)","ATPase activity, inhibitor, colorimetric","19.5 µM, preincubation 30 min, together with: ATP 300 µM",baseline: untreated,83.8%
COc1cc(-c2cncc3c2CN(C)Cc2cc(N4CCNCC4)ccc2-3)cc(OC)c1OC,MAP3K5,kinase activity,"1 µM, human enzyme, together with: ATP 10 µM",baseline: DMSO control,109%
CCN1CCN(Cc2ccc(NC(=O)c3ccc(C)c(/C=C/c4cnc5[nH]ccc5c4OC)c3)cc2C(F)(F)F)CC1,"CRK2 (Plasmodium falciparum, UniProt P61075)",kinase activity,1 µM,,100%
COc1cccc(C(=O)C#Cc2ccc(F)c(F)c2)c1,rhlR,"reporter gene, inhibitor, quorum sensing reporter strain","10 µM, 1.5 h",baseline: DMSO,55%
COc1ccc(F)cc1C(=O)NCc1ccc(-c2nn([C@@H](C)C(F)(F)F)c(N)c2C(N)=O)cc1,BRAF,"kinase activity, inhibitor, HotSpot radiometric","100 nM, together with: ATP 10 µM",,93.3 ± 0.1%
Cc1cc(NC(=O)c2cccc(NC(=O)/C=C/CN(C)C)c2)ccc1Nc1nccc(-c2cccnc2)n1,"MAPK8 (Homo sapiens, UniProt P45983)","enzyme activity, inhibitor","0.1829 µM, 0 h, unit not given, together with: GSH 10 mM pre-incubation",baseline: vehicle,0.246
CNc1ncc2c(/C=C/C(=O)N3CCC(OC)CC3)nn(Cc3cccc(C(F)(F)F)c3)c2n1,CDK16 with cyclin Y,"kinase activity, inhibitor",1 µM,baseline: untreated control,98%
CN(C)CC#Cc1ccc2[nH]c3c(c2c1)-c1nc(N)ncc1CCC3,"TTBK2 (Homo sapiens, UniProt Q6IQ55)","kinase activity, inhibitor, radiometric","1 µM, together with: ATP at Km",,98%
CC#CC(=O)N1CCC[C@H]1c1nc(-c2ccc(C(=O)Nc3ccccn3)cc2)c2c(N)nccn12,CDK16 with cyclin Y,"kinase activity, inhibitor, HotSpot radiometric","100 nM, together with: ATP 10 µM",,97.3 ± 3.4%
C=CC(=O)N1CCC[C@@H](n2nc(-c3ccc(Oc4ccccc4)cc3)c3c(N)ncnc32)C1,"ATM (Homo sapiens, UniProt Q13315)",,0.1 µM,,860%
COc1cc(C#CC(=O)c2ccccc2Cl)ccc1O,rhlR,"reporter gene, inhibitor, quorum sensing reporter strain","10 µM, 1.5 h",baseline: DMSO,62%
O=C(CCN(Cc1ccc(Cl)cc1F)Cc1ccc(Cl)c(O)c1F)NO,Astl,"enzyme activity, inhibitor, fluorogenic",0.25 µM,,57 ± 5%
COc1cc(Nc2ncc3c(n2)-c2ccc(Cl)cc2C(c2c(F)cccc2OC)=NC3)ccc1C(=O)O,FGFR3 K650E,kinase activity,1 µM,,37%
CC(C)OCCn1c(=S)[nH]c(=O)c2[nH]ccc21,"Myeloperoxidase (MPO, Homo sapiens, UniProt P05164)",chlorination activity,"0.625 µM, 0.1 h, together with: iodide, TMB",,53.6%
O=C(O)c1ccc(Nc2ncc3c(n2)-c2ccc(Cl)cc2C(c2c(F)cccc2F)=NC3)cc1,MLCK(h),kinase activity,1 µM,,95%
O=C1NC(=O)/C(=C/c2ccc(-c3ccc(F)cc3O)o2)S1,MAP3K5,enzyme activity,10 µM,,110%
